Published values from different studies.
Lines come from different studies, so protocols differ.
Sequence of UniProt P08684 (whole entry, looked up): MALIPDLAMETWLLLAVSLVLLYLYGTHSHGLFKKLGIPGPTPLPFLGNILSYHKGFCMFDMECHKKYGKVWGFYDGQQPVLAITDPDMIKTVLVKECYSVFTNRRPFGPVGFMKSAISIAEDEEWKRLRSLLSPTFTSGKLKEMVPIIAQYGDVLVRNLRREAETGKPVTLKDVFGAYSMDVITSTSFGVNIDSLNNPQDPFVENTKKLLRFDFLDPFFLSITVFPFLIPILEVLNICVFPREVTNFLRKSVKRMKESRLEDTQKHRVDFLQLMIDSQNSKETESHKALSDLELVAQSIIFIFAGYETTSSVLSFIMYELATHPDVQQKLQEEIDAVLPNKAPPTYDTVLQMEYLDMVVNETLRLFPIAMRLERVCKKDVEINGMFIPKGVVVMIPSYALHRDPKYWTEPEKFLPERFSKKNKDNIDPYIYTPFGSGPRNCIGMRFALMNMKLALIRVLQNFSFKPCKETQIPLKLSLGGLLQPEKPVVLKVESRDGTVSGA

Structure (SMILES)	target or system	test	test system	setting	quantity	value
Cc1cc(Nc2ccc(S(F)(F)(F)(F)F)cc2)n2nc(C(C)(F)F)nc2n1	Plasmodium vivax	12-lead Holter ECG	human malaria patients	oral, 600 mg, QTc above 500 ms	patients with QTcB above threshold	0%
CCOc1c([C@H](C)n2nc(C)c3c(N)ncnc32)cc(Cl)c(F)c1[C@@H]1CNC(=O)C1			human B-cell malignancy patients	oral, all doses	observations with ΔQTcF 30-60 ms	2.4%
O=C(Nc1nc2cccc(-c3ccc(CN4CCS(=O)(=O)CC4)cc3)n2n1)C1CC1		refers to: blood triglycerides increased	rheumatoid arthritis patients	oral, 75 mg once daily, 4 weeks, any relatedness	treatment-emergent adverse events	0%
CN1CCN(C(=O)c2ccc([C@H]3[C@@H](F)[C@@H](F)C[C@@H](F)[C@H]3F)cc2)CC1		hepatocyte stability	cryopreserved mouse hepatocytes	1 µM	hepatic clearance	37 mL/min/kg
CC(C)(C(=O)N1CCOc2c(C#N)cncc2C1)C(F)F		refers to: Headache	human	oral, 20 mg twice daily, 14 days, multiple ascending dose	subjects with adverse event	12.5%
COCCN(C)C(=O)c1ccc([C@H]2[C@@H](F)[C@@H](F)C[C@@H](F)[C@H]2F)cc1		liver microsome stability	rat liver microsomes	1 µM	hepatic clearance	24 mL/min/kg
Cc1cc(C(=O)NC(C)(C)COc2cccc3c2C(N)=NS(=O)(=O)N3)cc(C)n1	human peripheral blood lymphocytes	in vitro micronucleus test	0.4% DMSO	1000 µg/mL, 4 h	micronucleated binucleated cells	0.2%
CN(CCC#N)C(=O)c1ccc([C@H]2[C@@H](F)[C@@H](F)C[C@@H](F)[C@H]2F)cc1		hepatocyte stability	cryopreserved mouse hepatocytes	1 µM	hepatic clearance	53 mL/min/kg
CC[C@H]1[C@@H](O)[C@@H]2[C@H](CC[C@]3(C)[C@@H]([C@H](C)CCNC(=O)NS(=O)(=O)c4ccc(C(C)(C)C)cc4)CC[C@@H]23)[C@@]2(C)CC[C@@H](O)C[C@@H]12	Cytochrome P450 3A4 (CYP3A4, Homo sapiens, UniProt P08684)	substrate	human, plasma	10 mg, alone, study day 1	Cmax geometric mean	31.2 ng/mL

A few entries again:
Structure (SMILES)	target or system	test	test system	setting	quantity	value
CN1CCN(C(=O)c2ccc([C@H]3[C@@H](F)[C@@H](F)C[C@@H](F)[C@H]3F)cc2)CC1		hepatocyte stability	cryopreserved mouse hepatocytes	1 µM	hepatic clearance	37 mL/min/kg
